Results pooled from the literature.
Each line is one published result; not all experiments were run side by side. Values joined by “and” are separate records of one study, mostly repeats; a detail may differ.
Target: Mitogen-activated protein kinase kinase kinase 14 (MAP3K14, Homo sapiens, UniProt Q99558)

Structure (SMILES)	assay	conditions	how to read	endpoint	result
CNC1C[S+]2CC[S+]3CC[S+](C1)[Ru-4]321([N]=C=S)[n]2c3ccc(OC)cc3c3c4c(c5cc(F)c[n+]1c5c32)C(=O)NC4=O (centres unmarked)	KinomeScan	0.1 µM	baseline: untreated	remaining binding	100%
NC(=O)C[C@H]1CCc2sc3ncnc(O[C@H]4CC[C@H](N5CCOCC5)CC4)c3c21	enzyme activity, inhibitor	10 µM	–	inhibition	-6%
C=CC(=O)N1CCCC(n2c(=O)c3ncccc3n(Cc3ccc(Oc4ccccc4)cc3)c2=O)C1 (centres unmarked)	cell-free assay, competition with immobilised ligand	1 µM	–	remaining binding	66%
CN1CCN(Cc2ccc(-c3ccc(CO[C@H]4CCC[C@@H]4NC(=O)c4cc(-c5cnn(C)c5)cnc4N)cc3)cc2)CC1	enzyme activity, inhibitor	0.1 µM	–	inhibition	-2%
COc1c(Cl)cccc1Nc1c(-c2ccncc2C#C[C@@]2(C)CCCN2C(=O)/C=C/CN(C)C)[nH]c2c1C(=O)NCC2	binding, competition with immobilised ligand	3 µM	–	remaining binding	78%
CC(C)=CC1OC(C)(C)C2C=C3C(=O)C(Cl)=CC(O)C3C3C(O)C4OC4C(=O)C132 (centres unmarked)	cell-free assay, competition with immobilised ligand	10 µM	–	remaining binding	76%
C=CC(=O)N1CCc2ccc(-n3c(=O)ccc4cnc5ccc(-c6cnn(C)c6)cc5c43)cc21	KINOMEscan	1 µM	baseline: DMSO control	remaining binding	73%
CCn1cc(C(=O)O)c(=O)c2c(N)c(F)c(NC3CCCCC3)cc21	kinase activity	0.1 µM, with: ATP at Km	–	inhibition	9.3%
C[C@H]1CN(C(=O)c2cn(-c3ccnc(N)n3)c3cc(C#CC4(O)CCCCC4)ccc23)CCN1	cell-free assay, TR-FRET	1 µM	–	inhibition	31%
COc1cc(Nc2nccc(-c3cnn4nc(OC)ccc34)n2)cc(C(F)(F)F)c1	binding, competition with immobilised ligand	1 µM	–	remaining binding	100%
Cc1cnc2nc1Nc1cccc(c1)COC/C=C/COCc1cc(ccc1OCCN1CCOCC1)N2	binding, competition with immobilised ligand	0.1 µM	–	remaining binding	80%
C=CC(=O)N1Cc2nc(-c3cc(-c4cc(Cl)cnc4Cl)c(F)cc3F)n(-c3ccncn3)c2C1	cell-free assay, inhibitor	1 µM	–	inhibition	-0.9%
COc1cc(Nc2nc(C)cc(-c3cnn4nc(OC)ccc34)n2)cc(C(F)(F)F)c1	KINOMEscan	1 µM, NIK	baseline: DMSO	remaining binding	98%
Nc1ncc2c(n1)-c1c([nH]c3ccc(C4=CCOCC4)cc13)CCC2	binding, competition with immobilised ligand	1 µM	–	remaining binding	100%
COCC12C(=O)NC3C4(C(OC)CC1O)C1CC5(O)C(OC)C(O)C(OC(C)=O)(C1C5OC(=O)c1ccccc1)C3(O)C(OC)C24 (centres unmarked)	kinase activity, inhibitor, ProQinase kinase profiling	25 µM	baseline: control	remaining activity	84% and 96%
NC(=O)[C@@H](O)C[C@H]1CCc2sc3ncnc(O[C@H]4CC[C@H](N5CCOCC5)CC4)c3c21	enzyme activity, inhibitor	10 µM	–	inhibition	-13%
CNC(=O)C1CCN(c2cc(C)c(F)cc2NC(=O)c2ccc(-c3cc(O)ccc3C)c(C)c2)CC1	binding, competition with immobilised ligand	1 µM	–	remaining binding	63%
